Measurements from different studies.
A part holds a random share of what one study measured.

Sample 1
Target: Sal-like protein 4, full length isoform B (SALL4, Homo sapiens, UniProt Q9UJQ4-2, residues 1-616)
Technique: universal PBM
Molecule type: double-stranded DNA, one strand shown
Matrix: in vitro
Tested at: not given
Setting: 8-mer, flanks averaged, mean of replicates
Reading: higher = stronger binding
Target sequence (chain): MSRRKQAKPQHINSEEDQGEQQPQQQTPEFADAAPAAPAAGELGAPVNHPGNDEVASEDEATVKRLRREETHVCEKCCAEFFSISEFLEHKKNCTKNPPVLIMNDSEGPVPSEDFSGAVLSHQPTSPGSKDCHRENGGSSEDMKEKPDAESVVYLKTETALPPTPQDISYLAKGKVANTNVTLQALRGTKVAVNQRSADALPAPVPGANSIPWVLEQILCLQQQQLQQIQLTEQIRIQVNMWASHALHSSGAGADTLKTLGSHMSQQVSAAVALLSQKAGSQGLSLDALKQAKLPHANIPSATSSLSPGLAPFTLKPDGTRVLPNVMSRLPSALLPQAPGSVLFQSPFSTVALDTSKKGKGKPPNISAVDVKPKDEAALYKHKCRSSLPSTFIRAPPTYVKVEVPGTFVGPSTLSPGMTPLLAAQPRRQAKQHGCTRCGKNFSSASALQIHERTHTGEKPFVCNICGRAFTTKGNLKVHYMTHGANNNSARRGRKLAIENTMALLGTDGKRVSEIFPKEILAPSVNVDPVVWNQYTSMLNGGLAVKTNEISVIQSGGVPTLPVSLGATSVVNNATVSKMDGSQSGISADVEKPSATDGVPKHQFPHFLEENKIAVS
| Oligonucleotide | E-score |
| --- | --- |
| CCGACCCC | -0.331 |
| GGACAAAC | -0.0506 |
| TAATACGA | 0.289 |
| CGCCACGA | -0.0532 |
| CGGTTTAG | -0.133 |
| ATAGACTC | 0.0413 |
| ACATCAAG | 0.176 |
| AAGATCTA | -0.0366 |

Sample 2
Target: RING finger protein unkempt homolog, zinc fingers 1-6, GST-SBP tag (UNK, Homo sapiens, UniProt Q9C0B0, residues 30-357)
Technique: RNA Bind-n-Seq
Molecule type: RNA
Matrix: in vitro
Tested at: not given
Setting: RNA with constant flanks, ends assumed
Reference: input RNA pool
Reading: higher = stronger binding
All sequences stand within: GGGAGUUCUACAGUCCGACGAUC … CAACAGAGGAUUGAGCAUCA
Residues (chain): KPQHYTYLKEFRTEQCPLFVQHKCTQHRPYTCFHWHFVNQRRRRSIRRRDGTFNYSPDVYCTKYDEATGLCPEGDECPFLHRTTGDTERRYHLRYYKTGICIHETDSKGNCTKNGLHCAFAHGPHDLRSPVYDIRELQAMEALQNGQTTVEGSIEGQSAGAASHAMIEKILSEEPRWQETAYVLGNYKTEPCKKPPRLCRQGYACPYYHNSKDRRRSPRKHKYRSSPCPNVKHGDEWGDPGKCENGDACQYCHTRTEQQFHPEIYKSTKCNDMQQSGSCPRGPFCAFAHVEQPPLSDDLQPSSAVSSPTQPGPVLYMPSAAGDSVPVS
| Oligonucleotide | bound/input enrichment [ratio] |
| --- | --- |
| CUGGGGGAGGGCAUCUCCUGCUCCCUCCACCCUCCCAUUCACUCCCCCACCUUCCCCAAUUUCCGUUUCAUGCAAUAAAAAGGCCAAACUUUUAUUCCGUAAAACAUGAAGGACAAAACU | 0.54 |
| GCUGAGGGAAUAAAUUUAAUCAAGGUCUUUGCAAAAACAGAAGCACAGAAGGGAGCCUAUACCGAACUAACACUGCAGACUUAUCAAGAAGCACUCAGUCGCCAUUCUGCAGCUUCCUAA | 0.309 |
| CAGAAUGGAGCUAUGGACGUUAAUUUGACCGUCUACUCCAAUCCCCGCCAAGAGACUGGCACCGCUGGACAUCCAACAUACCAAUUUUCUGCUAAUACAGGUCCUGCACAUUACAUGACU | 0.361 |
| GCUGCUACAUUCAGUUUUUUAAUAUCCUAUGGUCAUGAUGCAAUCUUGUGAAUGGCCUUGUCCGUUACAAUGUGGUUUGGAUGGGAAGUGUCCCACCUGUAGACUCACGUCUUUGAACAU | 0.268 |
| GAUUACAAACCAUAAAAUGUAUAACGUUUUGAGCAGUAUUCUGUUGGGAUGGAGAUUUUACCGGUUCAGACAAAUCUUCUAGAUCUGCUUCACCCAGCAUAUUUUCUAUUCAGUGAUAUA | 0.247 |
| AAAGAGAAAGAUGAAAUGGUAGAGCAAGAGUUUAACCGGUUGCUAGAAGCUACAUCUUACCUCCGUCAUCAACUAGACUUCAAUGUCCUCAAUAAUAAGCCUGUGUCCCUUGGCCAGGCA | 0.192 |
| GGUAAGACUGAGGCACCAGUGAGUGAGCAAACCACUUUAGGCCAGGAGAAUUACAUAUUCUCCCGAGGCCAAGCAUCUGAUGAAAAGAGCCUGCCUAGAGAUUUUAUUCCGGCAGCACAU | 0.136 |
| UUCAAAGAGAAAACCCAGCAGUGGAAAUUGCUUGGUCAAUCUCAAGAUAAUGAAAAGGAAUCCGCUGCUCUCUUCCACCUGUGGCUGGAAACCAAAGACCAGGCCUUCUGUAAGGAAAAU | 0.0822 |

Sample 3
Target: Hepatocyte nuclear factor 3-alpha (Foxa1, Mus musculus, UniProt P35582, residues 1-468, full length assumed)
Technique: EMSA with sequencing
Molecule type: double-stranded DNA, one strand shown
Matrix: in vitro
Tested at: 10 and 20 nM
Setting: whole designed probe, mean of two concentrations, ends assumed
Reference: negative control set to 0
Reading: higher = stronger binding
All sequences stand within: GTGAGCGGTGCCCATTGATGGGGAAC … TTTCACTGGGATCGTGGGGAC
Residues (chain): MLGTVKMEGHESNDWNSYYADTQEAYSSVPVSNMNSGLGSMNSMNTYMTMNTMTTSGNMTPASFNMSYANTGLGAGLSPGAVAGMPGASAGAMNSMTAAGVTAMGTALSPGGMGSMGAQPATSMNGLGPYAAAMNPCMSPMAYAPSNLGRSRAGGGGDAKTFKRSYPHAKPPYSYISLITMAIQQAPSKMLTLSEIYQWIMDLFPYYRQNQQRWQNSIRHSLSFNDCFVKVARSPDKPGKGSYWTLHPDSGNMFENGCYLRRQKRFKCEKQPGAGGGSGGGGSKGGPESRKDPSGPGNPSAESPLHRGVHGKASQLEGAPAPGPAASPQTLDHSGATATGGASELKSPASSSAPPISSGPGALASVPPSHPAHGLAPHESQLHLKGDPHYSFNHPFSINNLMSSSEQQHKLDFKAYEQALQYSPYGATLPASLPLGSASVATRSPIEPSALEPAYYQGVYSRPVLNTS
| Oligonucleotide | normalised bound fraction |
| --- | --- |
| GGGTCAGAGGAGCTTACAGTGAGTGGACAAAGCAATTTTAATCCTGCCTTACTAATTTCGTAGGATATTCACCTTTCTGAAGTCACACAAATGTAATCTTGAAAAATATTCATTATAAAAGAAACCTAGGGAAAGTGCAATCTCTTGAAGAATGTGCATTTTTTACAATTGCATTTGTTTTATTCAAGCGCTT | -0.0559 ratio |
| TCGGCCAGCCTGGCTTCTGCGCCCCGCCAGGAGGTCGCGGAGCGGAGCGCGGCCAGGAAGTGAGCTGAGAGTGACAGCTCCCCCCACGCTGTTTGTTTATTCTCTCCAATGACTCATTCCACACTGGCTCTTCTTTCTTTCGGGAGGAGGGGAGAAAGGAGCGGGAGGGCGGGCGGGCAGGGGAGAGGCAGGC | 0.425 ratio |
| TACCAAAAATATCTAGAATGGAATGACATCTCCTCTAAGGCAGGGGATAATTAACTTGTCCCCACAAAGTATAAATAATCTCTTTCTTCACAAAGTAATCTTGTTTTTCTGACACTATCTGACATTTCCATCCAGTGTGCTTTTGAAACTGTATGCTCTTGTTTTTGTTTTTTATTTTTGTTTTTTTTGTTCA | 0.026 ratio |
| TGATTTTTAAAGATTTTATGATTCTGATACCAATATTCAAAAGTATATTATTTAATATATTTGTCTATGTCACTTGGCAAATACTATATTCATGTTTACACAGATCAATTTACATATGCATCTTTATATTTTTATCCCATCATTATTACTAATATAATTGTGCCAGTTGTGCCTACAGTTATTTTCTTGTATG | 0.45 ratio |
| ACTGAACTTCACTCCTGCTAGGGAGCTCTGGGAGCCAGTGTAGAATTGCATCTCCAAGCTGTCCCACCTGAGAGGTGAGGAAGCTCAAGTACTTATTTACTGATTCAGTATTGTGCTGGCAACGGGTTCTCCAGTAGGAGGTCAAGGGAGCCCTGATTTGTAGCATTTGCCAATGACCATGGTGTAAATACTC | 0.0569 ratio |

Single results of other studies
| Structure (SMILES) | host | matrix | tested at | time | quantity | result |
| --- | --- | --- | --- | --- | --- | --- |
| COc1ccc(/C=C(/C)c2nc(C)c(-c3ccccc3)c(O)n2)cc1 | mouse | microsomes or S9 | 2 µM | 0.5 h | remaining compound | 65.6% |

Excerpt of the above (sample 1):
| Oligonucleotide | E-score |
| --- | --- |
| ACATCAAG | 0.176 |
| AAGATCTA | -0.0366 |
